Measured values pooled from the literature.
Lines come from different studies, so protocols differ.

SMILES | assay | system | conditions | measurement | result
C=CC(=O)Nc1cc(Nc2nccc(-c3cn(C)c4ccccc34)n2)c(OC)cc1N(C)CCN(C)C | measured: Thrombocytopenia grade ≥3 | EGFR-mutant MET-altered NSCLC | oral, study | patients with treatment-related AEs | 0%
Cc1cc(NC2CCN(C(=O)OC3CCN(C(=O)/C=C/CN(C)C)C3)CC2)n2ncc(C(C)C)c2n1 (centres unmarked) |  | patients with advanced solid tumours | dose not given, QD arm, any grade | patients with Hypomagnesemia | 12%
CNC(=O)c1ccc(-c2cnc3ncc(Cc4ccc5ncccc5c4)n3n2)cc1F | measured: Fatigue, all grades | cancer patients | oral, 600 mg twice daily, expansion cohort, any causality | patients with adverse event | 34%
O=C(Nc1nc2cccc(-c3ccc(CN4CCS(=O)(=O)CC4)cc3)n2n1)C1CC1 |  | rheumatoid arthritis patients | oral, 100 mg twice daily, 4 weeks, TEAE regardless of relatedness | patients with Nausea | 16.7%
COc1cc(Nc2ncc3c(n2)-c2ccc(Cl)cc2C(c2c(F)cccc2OC)=NC3)ccc1C(=O)O | measured: Pain, grade 2 | cancer patients, phase 1/2 | oral, dose not given, added: pembrolizumab | patients with adverse event | 8%
CNC(=O)c1cc(Oc2ccc(NC(=O)Nc3cc(C(C)(C)C)nn3-c3ccc4ncccc4c3)c(F)c2)ccn1 |  | patients | oral, dose not given, cycles 1 and 2, High Cmax subgroup | patients with nervous system disorders | 67%
NC(=O)N1c2ccccc2C=Cc2ccccc21 |  | male patients | oral, dose not given, on-treatment adverse events | patients with ALT increased | 7%
C[C@@H](Nc1cc(F)cc(F)c1)c1cc(C(=O)N(C)C)cc2c(=O)cc(N3CCOCC3)oc12 | measured: Colitis | advanced solid tumour patients | oral, dose not given, dose expansion | patients discontinuing for AE | 0%

Repeated from above:
SMILES | assay | system | conditions | measurement | result
C[C@@H](Nc1cc(F)cc(F)c1)c1cc(C(=O)N(C)C)cc2c(=O)cc(N3CCOCC3)oc12 | measured: Colitis | advanced solid tumour patients | oral, dose not given, dose expansion | patients discontinuing for AE | 0%
